{"data": "Measurements from different studies", "note": "Protocols differ between the studies behind these lines. “And” joins repeats or separate records; there may be more than shown. Numbers after ± are the reported error.", "UniProt P04629, sequence (whole entry, looked up)": "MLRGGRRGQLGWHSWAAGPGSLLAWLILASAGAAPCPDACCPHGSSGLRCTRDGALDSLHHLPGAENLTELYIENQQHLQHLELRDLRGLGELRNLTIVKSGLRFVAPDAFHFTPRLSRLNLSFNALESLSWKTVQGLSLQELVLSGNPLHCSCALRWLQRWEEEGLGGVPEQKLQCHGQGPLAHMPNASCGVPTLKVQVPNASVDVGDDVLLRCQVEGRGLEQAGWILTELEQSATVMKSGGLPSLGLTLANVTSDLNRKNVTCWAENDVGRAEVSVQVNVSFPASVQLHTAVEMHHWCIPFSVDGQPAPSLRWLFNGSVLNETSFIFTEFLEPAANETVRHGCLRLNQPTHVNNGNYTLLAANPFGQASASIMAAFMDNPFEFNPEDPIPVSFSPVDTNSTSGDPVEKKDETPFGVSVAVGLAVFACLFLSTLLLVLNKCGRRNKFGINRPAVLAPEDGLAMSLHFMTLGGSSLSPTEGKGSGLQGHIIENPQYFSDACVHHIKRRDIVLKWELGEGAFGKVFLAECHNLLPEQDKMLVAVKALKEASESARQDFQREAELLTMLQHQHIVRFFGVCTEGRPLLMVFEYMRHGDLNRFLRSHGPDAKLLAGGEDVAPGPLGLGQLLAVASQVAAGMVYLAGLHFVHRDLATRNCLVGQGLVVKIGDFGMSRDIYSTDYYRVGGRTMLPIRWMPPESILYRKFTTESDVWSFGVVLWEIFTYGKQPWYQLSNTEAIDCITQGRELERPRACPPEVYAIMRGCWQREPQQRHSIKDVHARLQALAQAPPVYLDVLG"}
{"Compound": "CN1CCCNC(=O)c2cccc(c2)C(=O)NCCCN(C)CCCNc2cccc3c2C(=O)c2cccc(c2C3=O)NCCC1", "tested on": "SAS", "assay": "RNA-Seq, item: ATRAID mRNA", "setting": "1 µM, 6 h", "scale": "baseline: untreated cells", "endpoint": "log2 fold change", "result": 0.373}
{"Compound": "COc1cccc(C2CC(c3ccccc3Cl)Nc3nc(N)nn32)c1 (centres unmarked)", "tested on": "MEF TRE-FLAG-LMNB1", "assay": "item: LMNB1", "setting": "100 µM", "endpoint": "maximum inhibition", "result": "71%"}
{"Compound": "CCC(=CCc1c(O)cc2c(c1O)C(=O)CC(c1cc(OC)ccc1O)O2)CC (centres unmarked)", "tested on": "HeLa", "assay": "cell growth or viability, MTT", "setting": "6.25 µM, 48 h", "endpoint": "inhibition", "result": "10.4%"}
{"Compound": "COc1ccc(CNC[C@](O)(COCc2ccccc2)[C@@H]2CC[C@@H](C)C[C@H]2OCc2ccccc2)cc1", "tested on": "A2780", "assay": "cell growth or viability, MTT", "setting": "30 µM, 72 h", "endpoint": "inhibition", "result": "93.4%"}
{"Compound": "CC(=O)c1ccc(S(=O)(=O)NC23CCCC(C)(CCC4C2CC4(C)C)C3)cc1 (centres unmarked)", "tested on": "HT-29", "assay": "cell growth or viability, CCK-8", "setting": "50 µM", "endpoint": "inhibition", "result": "98.9%"}
{"Compound": "COc1ccc2c(CNc3ccc(C)cc3)cc(=O)oc2c1", "tested on": "COS-7 (untransfected)", "setting": "500 µM, unit not given", "scale": "baseline: 3 µM ionomycin", "endpoint": "calcium mobilisation signal", "result": "2.59 ± 1.02"}
{"Compound": "CC(=O)Nc1ccc(C2CCCCC2)cc1", "assay": "hepatocyte stability", "test system": "cryopreserved rat hepatocytes", "setting": "1 µM", "endpoint": "hepatic clearance", "result": "47 mL/min/kg"}
{"Compound": "O=C(C[Se]C(=O)c1ccc2ccccc2c1)Nc1cccc(C(F)(F)F)c1", "tested on": "NCI60 NSCLC subpanel mean", "assay": "cell growth", "endpoint": "TGI", "result": "3.32 µM"}
{"Compound": "Cc1ncsc1-c1ccc(C(C)NC(=O)C2CC(O)CN2C(=O)C(NC(=O)CCCCCCCCCCN2CCCC(Nc3ncc(Cl)c(Nc4ccccc4S(=O)(=O)C(C)C)n3)C2)C(C)(C)C)cc1 (centres unmarked)", "tested on": "22Rv1", "assay": "RNA-seq, item: MCF2L mRNA", "setting": "concentration not given", "scale": "baseline: DMSO", "endpoint": "log2 fold change", "result": -1.33}
{"Compound": "CC(C)S(=O)(=O)NC12CCCC(C)(CCC3C1CC3(C)C)C2 (centres unmarked)", "tested on": "HT-29", "assay": "cell growth or viability, CCK-8", "setting": "50 µM", "endpoint": "inhibition", "result": "98.6%"}
{"Compound": "F[C@@H]1[C@H](c2ccc(-c3ccc(N4CCCC4)nc3)cc2)[C@H](F)[C@H](F)C[C@@H]1F", "assay": "hepatocyte stability", "test system": "cryopreserved rat hepatocytes", "setting": "1 µM", "endpoint": "hepatic clearance", "result": "10 mL/min/kg"}
{"Compound": "N#C[C@@H]1CC(F)(F)CN1C(=O)CNC(=O)c1ccnc2ccc(OCCCN3CCN(C(=O)CCc4ccc5c(c4)CN4CCN(Cc6cc(CCC(=O)O)ccc6O)CC(=O)[O][Al-]([18F])([O]C(=O)C4)[O]5)CC3)cc12 (some centres unmarked)", "tested on": "HT1080 cells expressing human FAP", "setting": "15 min, 37 °C", "endpoint": "internalized fraction", "result": "81.5 ± 2.9%"}
{"Compound": "CCCCCCc1cccc([C@H](O)C[C@H](CO)NC(=O)CCCCCOc2ccc3ccccc3c2)c1", "tested on": "HeLa", "assay": "CERT activity, HPLC-MS/MS lipidomics, item: hexosylceramide 24:1", "setting": "1 µM, 24 h, not cell-number normalised", "endpoint": "hexosylceramide level", "result": "16600 pmol/sample and 8790 pmol/sample and 15300 pmol/sample"}
{"Compound": "COC1CN([C@H]2CC[C@H]([C@@]3(C)Oc4c(Cl)cc(C(=O)NCc5c(SC)cc(C)[nH]c5=O)c(C)c4O3)CC2)C1", "assay": "RNA-seq, item: LZTFL1", "test system": "human, whole blood", "setting": "dose not given, 24 h", "scale": "baseline: pretreatment baseline", "endpoint": "log2 fold change", "result": 1.26}
{"Compound": "O=C(Nc1nnc2c1c(-c1ccc(Cl)cc1)nc1sc(=Cc3ccco3)c(=O)n12)c1ccccc1 (mixture of isomers)", "tested on": "OVCAR-8", "assay": "SRB", "setting": "10 µM, NCI60 single-dose screen", "scale": "baseline: untreated", "endpoint": "cell growth", "result": "44.4%"}
{"Compound": "O=S(=O)(N[C@H]1CCO[C@@H](C2c3ccc(F)cc3CCc3cc(F)ccc32)C1)c1ccc(OC(F)(F)F)cc1", "tested on": "D425", "assay": "immunoblot", "setting": "concentration not given", "endpoint": "I2PP2A protein level", "result": "increased"}
{"Compound": "Cn1ncc2cc(-c3cncc(Cl)c3N3CCC4(CCNC4=O)CC3)ccc21", "tested on": "LS174T", "assay": "gene expression, microarray, item: MT1E mRNA", "setting": "concentration not given, 4 h", "scale": "baseline: untreated cells", "endpoint": "log2 fold change", "result": -2.15}
{"Compound": "CNS(=O)(=O)Nc1nccc(Cc2c(C)c3ccc(Oc4ncccc4F)cc3oc2=O)c1F", "tested on": "COLO 704", "assay": "cell viability", "setting": "7 days", "endpoint": "IC50", "result": "> 1 µM"}
{"Compound": "C[n+]1ccc(/C=N/NC(=O)c2ccc3ccc4ccc(C(=O)N/N=C/c5cc[n+](C)c6ccccc56)nc4c3n2)c2ccccc21", "tested on": "22CTA telomeric G4-DNA antiparallel", "assay": "FRET melting", "setting": "1 µM, K10 buffer, DNA 0.2 µM, together with: ds26 10 µM", "endpoint": "ΔTm", "result": "11.9 ± 0.3 °C"}
{"Compound": "C=C(NC(=O)c1csc(-c2nc3c(cc2O)-c2nc(cs2)C(=O)NC(C(C)O)C(=O)NC(=C(C)OC)c2nc(cs2)C(=O)NC2c4nc(cs4)C(=O)NC(COC(=O)c4c5c6c(cccc6n4O)COC(=O)C(OC4CC(C)(O)C(N(C)C)C(C)O4)C2OC5)c2nc-3cs2)n1)C(N)=O (centres unmarked)", "test system": "cynomolgus monkey, female, plasma", "setting": "intravenous infusion, 1.5 mg/kg twice daily, 0 to 30 h", "endpoint": "Cmax", "result": "16900 ng/mL"}
{"Compound": "C=CC(=O)Nc1cccc(Cn2ncc3cnc(Nc4cnn(CCOC)c4)nc32)c1", "tested on": "CDKL1 human", "assay": "binding, KINOMEscan", "setting": "100 nM", "scale": "lower = stronger binding", "endpoint": "percent of control", "result": "85%"}
{"Compound": "Nc1ncc(-c2cc(-c3cnn(CC(F)(F)F)c3)ncc2F)nc1C(=O)NC1CNCC(F)C1 (centres unmarked)", "tested on": "MERTK", "assay": "KINOMEscan", "setting": "1 µM", "scale": "baseline: DMSO control", "endpoint": "remaining binding", "result": "38%"}
{"Compound": "CCCC[C@H](NC(C)=O)C(=O)N[C@@H](CCC(=O)O)C(=O)N[C@@H](CO)C(=O)N[C@@H](CC(=O)O)C(=O)COC(=O)c1c(C)cccc1C", "tested on": "THP-1 cells, LPS-primed", "assay": "pyroptosis, LDH release", "setting": "25 µM, LPS 1 µg/mL, 4 h, together with: nigericin 5 µM, 2 h", "endpoint": "cell lysis", "result": "36.5% and 20.5%"}
{"Compound": "COc1cc(N2CCN(C(=O)C3CCCN3)CC2)ccc1Nc1ncc(Cl)c(Nc2ccccc2P(C)(C)=O)n1 (centres unmarked)", "tested on": "NCI-H3122", "assay": "CCK-8", "setting": "25 nM, 48 h", "endpoint": "viability", "result": "60%"}
{"Compound": "Cc1nn(-c2cccc(N)c2)c(=O)c2cnc(Nc3ccc(N4CCNCC4)cc3)nc12", "tested on": "High affinity nerve growth factor receptor (NTRK1, Homo sapiens, UniProt P04629)", "assay": "enzyme activity, inhibitor", "endpoint": "IC50", "result": "2.75 µM"}
{"Compound": "COc1ccc(C2CC(=O)c3c(cc(O)c(CC=C(C)C)c3O)O2)cc1 (centres unmarked)", "tested on": "HeLa", "assay": "cell growth or viability, MTT", "setting": "25 µM, 48 h", "endpoint": "inhibition", "result": "28.1%"}
{"note": "A few entries again:"}
{"Compound": "O=C(Nc1nnc2c1c(-c1ccc(Cl)cc1)nc1sc(=Cc3ccco3)c(=O)n12)c1ccccc1 (mixture of isomers)", "tested on": "OVCAR-8", "assay": "SRB", "setting": "10 µM, NCI60 single-dose screen", "scale": "baseline: untreated", "endpoint": "cell growth", "result": "44.4%"}
{"Compound": "O=S(=O)(N[C@H]1CCO[C@@H](C2c3ccc(F)cc3CCc3cc(F)ccc32)C1)c1ccc(OC(F)(F)F)cc1", "tested on": "D425", "assay": "immunoblot", "setting": "concentration not given", "endpoint": "I2PP2A protein level", "result": "increased"}
{"Compound": "Cn1ncc2cc(-c3cncc(Cl)c3N3CCC4(CCNC4=O)CC3)ccc21", "tested on": "LS174T", "assay": "gene expression, microarray, item: MT1E mRNA", "setting": "concentration not given, 4 h", "scale": "baseline: untreated cells", "endpoint": "log2 fold change", "result": -2.15}
{"Compound": "CNS(=O)(=O)Nc1nccc(Cc2c(C)c3ccc(Oc4ncccc4F)cc3oc2=O)c1F", "tested on": "COLO 704", "assay": "cell viability", "setting": "7 days", "endpoint": "IC50", "result": "> 1 µM"}
